Measurements from different studies.
Numbered parts are unrelated; each lists some results of a single study. Substitutions count along the parent as printed.

Study 1 — method: DHFR PCA, deep sequencing; sample: yeast; with: (+)-ABA 200 µM; baseline: wild-type fitted maximum; direction: higher = stronger binding; endpoint: relative binding score
Target: ABI1, truncated, D143A, DHFR fusion (Arabidopsis thaliana)
Notes: methotrexate growth selection, single substitutions
Starting sequence: PYL1, truncated, DHFR fusion (Arabidopsis thaliana); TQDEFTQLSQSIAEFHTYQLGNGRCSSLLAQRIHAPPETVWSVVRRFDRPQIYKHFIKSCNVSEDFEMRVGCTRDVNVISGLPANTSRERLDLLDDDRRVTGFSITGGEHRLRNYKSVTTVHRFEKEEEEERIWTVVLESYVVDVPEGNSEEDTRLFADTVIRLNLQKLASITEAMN
N77I: 104%
S11V: 102%
I33L: 44.4%
E14N: 91.6%
K116W: -4.49%
I133H: 107%
G23P: 65.6%
H110G: 50.9%
T101S: 98.1%
R155M: 93.8%
E125T: 102%
F5Y: 85%
F157D: 6.45%
N22L: 101%

Study 2 — target: CCNA1, cyclin fold, Cln2 fusion (human); method: yeast growth competition, sequencing; sample: yeast; notes: weak parent motif; baseline: not given; direction: higher = stronger binding; endpoint: normalised enrichment score
Starting sequence: CDKN1C docking peptide (human); TSACRSLFGPVDH; partner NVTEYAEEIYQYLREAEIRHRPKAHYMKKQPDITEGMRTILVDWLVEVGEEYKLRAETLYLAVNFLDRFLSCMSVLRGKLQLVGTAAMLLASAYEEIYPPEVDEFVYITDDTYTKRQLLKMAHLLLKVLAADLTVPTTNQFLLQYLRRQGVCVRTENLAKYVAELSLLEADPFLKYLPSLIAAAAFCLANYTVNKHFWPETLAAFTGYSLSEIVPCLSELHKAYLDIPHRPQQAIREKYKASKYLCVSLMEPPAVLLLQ
F8A: 0.148
S6A: 0.256
P10A: 0.327
F8L: 0.312
H13A: 0.408
R5A L7A: -0.024
L7A: 0.131
R5K: 0.364
T1A: 0.572

Study 3 — method: RNA Bind-n-Seq; form: RNA; sample: in vitro; concentration: 100 nM; baseline: input RNA pool; direction: higher = stronger binding; endpoint: bound/input enrichment
Target: RING finger protein unkempt homolog, zinc fingers 1-6, SBP tag (UNK, Homo sapiens, UniProt Q9C0B0, residues 30-357)
Chain of UniProt Q9C0B0 (30-357, looked up): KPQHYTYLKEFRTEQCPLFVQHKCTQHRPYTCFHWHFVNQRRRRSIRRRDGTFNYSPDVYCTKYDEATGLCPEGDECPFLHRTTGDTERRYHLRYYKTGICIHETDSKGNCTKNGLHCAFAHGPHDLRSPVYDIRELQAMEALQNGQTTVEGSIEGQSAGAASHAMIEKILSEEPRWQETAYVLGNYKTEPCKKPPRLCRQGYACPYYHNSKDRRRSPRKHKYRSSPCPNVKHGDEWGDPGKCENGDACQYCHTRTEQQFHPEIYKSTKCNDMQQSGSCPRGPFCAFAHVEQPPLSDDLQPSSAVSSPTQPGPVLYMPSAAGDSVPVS
Notes: RNA with constant flanks, vertebrate orthologous sites, ends assumed
All sequences stand within: GGGAGUUCUACAGUCCGACGAUC … CAACAGAGGAUUGAGCAUCA
GGCAACCGGUGGGGGGAAUCCUCUGCCUUGGCCUUGCCUCCCCUCUCUGCUACCUGCCUCUAGUUAUUUUUUUUUAACCAUCACGUGAUUAUGGUCGGCGCUGUCUCCCCCCGACCUGCU: 2.01 ratio
ACAGCAACAGCAGAGGCUGUUUGAGCUUUGGGGAAAUGAGCUUUGCUUUUUAUUUUUGAAUAGGAUACUUUUAUAUGAUGGGUGCUUUGAGUGUGAACGCAGCAGGCUCUUCAUUUCAGA: 1.36 ratio
AGCAACCCAAGGAUUCAGGACUGGUUUUACAAAUAUCCCGAGUAGAUAUGGAACUAACAAUAGAAUUGGACAACCAAGACCAUGAUGUACUAUAAUUUAAUUUAUUUUUAUGAGGAAUAU: 0.797 ratio
UCUUCAACUUGUUCUAGCUUGUGACCCUUCAAAGCUGGGUCAGGUGUUAGUGCUAGGUACUAGAAAUUUUCAUUUCUUGAUUGCCACUGCUCAGAGAGACAGAUGUUGAAAACAGGAAUA: 0.271 ratio
CAGCUGAUUCACUUAUUGGGAGAGCUGCACAUAUUGCUGUUCUUGAUUCAGAAAUAUUUUUAGAAAAAUUCUUUCUGGUGGCUGCUCUAAAAUAUUUCCAGUAGCAUAAAAGCAUUGUUA: 0.656 ratio
UCCUCUGAACCCCAUAUCUUCUGUUUCAUAGUGCAGAAGUACUCUUUUCAAUUCUAUUAUUAGUGGACUUGUUUUAAUUUUAGGGAAACUUUCAGUACAGAUACUGUGAGCUUACAUGGA: 2.04 ratio
UGCUGUUAAUGCACUGUAUACCAGGCAUCGUCUGAACUUAGUGUAAACUAGGAGAUUUUAUAGUUUUAUUUUAAUGAAGUAUCGAUCGAAGCAAAGCUAUUAGGAGUAUGUAGUCUUUUA: 2.02 ratio
ACUCUCAGAUGCAGUGUAUAAGUUAUCCAAGGCAGUCACUUGAGCUUCAUGUAUACUGUUAGUUUUAAAGUCAUUUAUGUUUAUUUAAACUUCUAGAUUGGAUUGUUUCUUAUUGCUCUA: 0.949 ratio
AAUUGAAUAAAAAUGUUUCCACUGGGUUUUGCCUGUAAGAAAAAAAUGUACCCGAGCCCAUAGAGCUUUUUAAUAAUAGCACUAACCAAUGCCUUUUUAGAUGUAUUUUUGAUGUAUAUA: 1.4 ratio
AGCAAAUAAUAAUAAUAAUAAUUCUAGUUUUAACUAGCAACAGUGAUUACUAGUCUGUGCUAGAAAGGAUCAGUUACACCUUUCAAGUUUUCUCCUUUGUCUGCUACCAGAAACCAAUCA: 1.04 ratio
AGCAACUCAAGGAUUCAGAACUGGGUUUACAAAUGUCCCAAGCAGAUAUGGAACAAACGCUCAUGGUCAACCCCGACCAUAAUAAACACCAUUAUUUAUUGUACUUAAGGGUAUUGACUU: 0.248 ratio

Study 4 — method: protein binding microarray; form: double-stranded DNA, one strand shown; sample: in vitro; concentration: not given; baseline: not given; direction: higher = stronger binding; endpoint: E-score
Target: Histone acetyltransferase KAT6A, winged helix 1, GST fusion (KAT6A, Homo sapiens, UniProt Q92794, residues 1-85)
Notes: 8-mer, flanks averaged, mean of 2 arrays, mostly near background
Construct (chain): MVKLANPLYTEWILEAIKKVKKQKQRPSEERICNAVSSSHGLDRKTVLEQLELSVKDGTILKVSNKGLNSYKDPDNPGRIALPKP
CCGCGCAG: 0.391
CTCCCGAA: -0.0724
CTATTTGC: -0.124
ACATATCC: 0.0671
GAGTTTGC: 0.0569
CTAATGGA: -0.0764
ACTTGTAG: -0.0937
AAACCTCG: -0.0621
ATCTCCAC: 0.00984
GACGAATA: -0.0716
AAGTACCT: -0.0773
CACCGGCG: 0.391
AGCTTTAA: -0.104
GCCTGCCA: -0.132
ACCATTTC: -0.118
CTTGTATA: -0.107
CCACAAGA: -0.281
GACTTACA: -0.142
AAAGTGAG: -0.27
GGGGAGGA: 0.0636
CAATCATA: -0.00839
AGAATATA: -0.0921
ACGGAGCA: -0.00505
AAGACTAA: -0.156
GCCCCGAA: 0.0527

Study 5 — method: competition protein-binding microarray; form: double-stranded DNA, one strand shown; sample: in vitro; concentration: 2 µM; with: Pho4 competitor, 0.05 µM; direction: higher = stronger binding; endpoint: fluorescence intensity; all sequences stand within: … GTCTTGATTCGCTTGACGCTGCTG
Target: Centromere-binding protein 1, full length, His-tagged (CBF1, Saccharomyces cerevisiae, UniProt P17106, residues 1-351)
Chain of UniProt P17106 (whole entry, looked up): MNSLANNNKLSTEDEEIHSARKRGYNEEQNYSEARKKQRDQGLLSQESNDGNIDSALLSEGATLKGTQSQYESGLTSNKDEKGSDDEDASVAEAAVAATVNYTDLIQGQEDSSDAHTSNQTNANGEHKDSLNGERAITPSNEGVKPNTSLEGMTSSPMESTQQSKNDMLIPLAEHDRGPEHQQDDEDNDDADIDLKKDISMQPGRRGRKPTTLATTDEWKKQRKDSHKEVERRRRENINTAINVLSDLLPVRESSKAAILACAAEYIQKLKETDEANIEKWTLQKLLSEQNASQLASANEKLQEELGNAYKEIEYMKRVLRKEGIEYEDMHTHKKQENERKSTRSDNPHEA
Notes: whole 60-bp probe, lowest competitor level
TGCAAGTTAAAGCGGTCCGTGCCAGATTGGACGAGT: 70.3 a.u.
ATTACAGAAGAACCCCTCGTGACGGCTGGATTACTG: 330 a.u.
GGGCTAAAGAGCCGTCCCGTGATGGCCTGTAATGGC: 293 a.u.
AATCTGGTACCTTTCCATGTGGCACTTCAAAATTTT: 70.2 a.u.
CATACCCAACCTTGACGAGTGGGTGAAGATATTTGT: 59.8 a.u.
ATGAAACCACTTTAGCACGATGAAATAGCAATATGT: 72.5 a.u.
GCAAAGAAATAGGATCGCGTGGAACTGGATCGTACA: 70.1 a.u.
CTGAACTCGCCGCCTCACCTGCCACTACGTCTTCCG: 60.5 a.u.
TGCGCAACAACTTGTCACGAGACTTTATGTCTAGAA: 1370 a.u.
CGTCCTAGCGATTGACAGGTGGGTGCCATGAGGAAG: 58.2 a.u.
CTTCTGTAAATTTGCCGAGTGGGTGGACGCGCCCCG: 76.4 a.u.
AAAGCGGTAATTTTTCACGTGAGATCAAATATCTAT: 1800 a.u.
CTTTCCCGATCTTACCACGTGTTTTTAGCACATTTG: 1380 a.u.
CATGAAACTCGCTGTCAGCTGAAATTTCACCTCAGT: 90.5 a.u.
CTTCTGTAAATTTGGCAGGTGGGTGGACGCGCCCCG: 80.4 a.u.
TTTTGAATTCACCATCACGTTATTACCAGAACAATT: 678 a.u.
TGCATCCTCTCCGGCCACGTGGGTAGAGGTTTTACC: 1390 a.u.
TGCGCAACAACTTTTCACGTGGTCTTATGTCTAGAA: 1280 a.u.
AAATTACTAAGTTTTCACGTGGAATACCCCGTATGA: 428 a.u.
GAACCTCACTGAAGCACCGTGAATAACCCCATAAAT: 77.1 a.u.
TGCGCAACAACTTGCTATGTGGGTGTATGTCTAGAA: 67.1 a.u.
CTTTTCACTCTTCATCACATGATATTACCTTTACAT: 1110 a.u.
GCAACGCCCCCTTCCCACGTGGTCTTCTCCCTCTCC: 1140 a.u.
CGGCAAGACATGTCCCACGTTATAAGGCAATTTCCA: 73.2 a.u.
CGAAATAAAAGCCATCACGTGGAGTGTAGCACCGCC: 1980 a.u.

Excerpt of the above (study 4):
ACGGAGCA: -0.00505
GCCCCGAA: 0.0527
CTATTTGC: -0.124
CACCGGCG: 0.391
ACTTGTAG: -0.0937
ACATATCC: 0.0671
GACTTACA: -0.142
AGCTTTAA: -0.104
